Results gathered from unrelated publications.
Numbered parts are unrelated; each lists some results of a single study.
Chain of UniProt Q92772 (whole entry, looked up): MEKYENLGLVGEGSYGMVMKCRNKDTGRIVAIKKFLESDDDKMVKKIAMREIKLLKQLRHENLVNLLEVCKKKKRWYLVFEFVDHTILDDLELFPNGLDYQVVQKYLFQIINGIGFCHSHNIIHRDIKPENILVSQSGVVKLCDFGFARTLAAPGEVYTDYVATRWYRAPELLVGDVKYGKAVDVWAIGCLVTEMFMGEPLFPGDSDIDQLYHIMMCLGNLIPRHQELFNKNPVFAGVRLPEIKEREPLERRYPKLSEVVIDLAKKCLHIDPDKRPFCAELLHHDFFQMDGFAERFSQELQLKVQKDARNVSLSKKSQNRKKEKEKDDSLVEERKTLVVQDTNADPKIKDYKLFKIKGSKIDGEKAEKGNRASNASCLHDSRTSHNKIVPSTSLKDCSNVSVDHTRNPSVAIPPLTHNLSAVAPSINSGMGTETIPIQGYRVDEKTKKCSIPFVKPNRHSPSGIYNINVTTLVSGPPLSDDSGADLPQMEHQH

Set 1
Target: RING finger protein unkempt homolog, zinc fingers 1-6, GST-SBP tag (UNK, Homo sapiens, UniProt Q9C0B0, residues 30-357)
Technique: RNA Bind-n-Seq
Molecule type: RNA
Sample: in vitro
Tested at: not given
Setting: RNA with constant flanks, human and mouse sites, ends assumed
Relative to: input RNA pool
Reading: higher = stronger binding
Target sequence (chain): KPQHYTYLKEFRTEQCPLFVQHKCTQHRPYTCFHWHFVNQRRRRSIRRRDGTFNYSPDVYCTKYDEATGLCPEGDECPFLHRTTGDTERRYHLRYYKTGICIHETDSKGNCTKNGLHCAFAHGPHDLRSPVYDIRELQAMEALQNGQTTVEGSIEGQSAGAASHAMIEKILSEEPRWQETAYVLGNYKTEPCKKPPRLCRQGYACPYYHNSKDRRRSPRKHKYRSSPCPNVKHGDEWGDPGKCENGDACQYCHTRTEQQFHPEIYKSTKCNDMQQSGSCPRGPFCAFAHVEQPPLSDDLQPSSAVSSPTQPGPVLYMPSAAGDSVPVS
The bound/input enrichment of `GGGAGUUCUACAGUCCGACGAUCUCACAGGCAGGUUUAAUGGCCAGUUUAAAACUUAUGCUAUCUGCGGGGCCAUUCGUAGGAUGGUGAGUGUUUCCCUGGGCUUUGCUCAUCACUUCGGGACAUCGUGGACUUUACCGUGCGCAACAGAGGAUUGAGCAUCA` is reported as 0.136 ratio.
With `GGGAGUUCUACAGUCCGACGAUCCAGGGACGUUUUGAUGUAAAAAUUGAAGUUAAGAGCUGAUCACAAGCACAAAUCUUUCCCACUAGCCAUUUAAUAAGUUAAAAAAAGAUACAAAAACAAAAACCUACUAGUCUUGAACAACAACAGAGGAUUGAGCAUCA` the bound/input enrichment was 87.6 ratio.
The bound/input enrichment of `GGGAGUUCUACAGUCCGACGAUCAUUUGGGGGGAGAUGACUUUGAAUUUUGUUUGAAAUGCUUCAGUUGUCAUUUUGUCAUUGCAUUUCAAAUAGCUCAUGACCCUUUUCUUGUGGUCACUUUGGCACACCAUAGUAGCCCACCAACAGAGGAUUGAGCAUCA` is reported as 0.337 ratio.
`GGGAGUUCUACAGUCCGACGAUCUGCACCUUUAGAACUAUUAAUAGCAACCUGCAUUUUUUUUUAAUUUAUACUUCAGAAUCCUUUAAGAACCUGGUGUUCCUGAGUGGUCCUGAAUCAUAUAAGUUGGUAAUGGAAGCUGUACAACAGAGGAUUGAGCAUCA` gave a bound/input enrichment of 3.16 ratio.
With `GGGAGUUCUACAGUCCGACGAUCUCGGAGUUUGAUCCAUUUUUUAGUCUCUUUGCAUUCACCAACAAAAUUACUUCUGUGCAUAGUAGAAUCAUUUGGUCUUGUGACUGGAGUCCUGAUAACAAGUACUUCUUCACUGGAAGUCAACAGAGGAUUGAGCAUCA` the bound/input enrichment was 0.815 ratio.
With `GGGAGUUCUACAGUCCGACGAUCACUUUUCCAGUAUUUUAGUGGACCCUGAAAUGUGUGUGAUGUGACAUUUGUCAUUUUCAUUAGCAAAAAAAGUUGUAUGAUCUGUGCCUUUUUUAUAUCUUGGCAGGUAGGAAUAUUAUACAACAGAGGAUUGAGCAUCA` the bound/input enrichment was 0.565 ratio.
For `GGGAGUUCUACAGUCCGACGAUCUCCUGGGCGCCCUUGAAGCACCGCGGGUCAUGGCUGGCACGGCGCGCGGCUGCGGGACCAGCCUGGACCUGCUGCGGUCCUUGCCGAGAGUGAGCCUGGCCAACCUGAAGCCCAGUCCUACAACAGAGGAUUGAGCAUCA`, the bound/input enrichment was 0.0531 ratio.
With `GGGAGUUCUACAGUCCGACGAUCAUCACUAAAUUCUGCUGUCAUCAAGAGCAGAUAUAUAGUAGUUGACUCAGUAAGUGUAAAUGCUCAGAAUAAGUUAAAUAUGUGGUUACAGUUUUUGUUUAACAUCCAGGUACAGCUAUGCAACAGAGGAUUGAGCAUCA` the bound/input enrichment was 0.135 ratio.

Set 2
Target: Histone acetyltransferase KAT6A, both winged helices, GST fusion (KAT6A, Homo sapiens, UniProt Q92794, residues 1-181)
Technique: protein binding microarray
Molecule type: double-stranded DNA, one strand shown
Sample: in vitro
Tested at: not given
Setting: 8-mer, flanks averaged, mean of 2 arrays, mostly near background
Relative to: not given
Reading: higher = stronger binding
Residues (chain): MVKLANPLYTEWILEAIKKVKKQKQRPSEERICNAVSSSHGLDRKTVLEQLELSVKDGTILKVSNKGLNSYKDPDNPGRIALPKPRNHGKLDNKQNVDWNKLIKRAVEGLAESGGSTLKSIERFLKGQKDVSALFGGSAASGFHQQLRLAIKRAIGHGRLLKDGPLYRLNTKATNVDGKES
`CACCTGAC` gave an E-score of -0.0436.
With `ATCCCCGG` the E-score was 0.0561.
`GGCCTTTA` has an E-score of 0.0488.
`AGGCGGCA` has an E-score of 0.138.
For `GTTAGGAA`, the E-score was -0.104.
For `GGCAGGCC`, the E-score was -0.0364.
`CGAAGGAG` gave an E-score of -0.0304.
With `CGGTGCAC` the E-score was 0.0627.

Set 3
Target: Phosphate system positive regulatory protein PHO4, full length, GST-tagged (PHO4, Saccharomyces cerevisiae, UniProt P07270, residues 1-312)
Technique: competition protein-binding microarray
Molecule type: double-stranded DNA, one strand shown
Sample: in vitro
Tested at: 2 µM
Setting: whole 60-bp probe, lowest competitor level
With: Cbf1 competitor, 0.05 µM
Reading: higher = stronger binding
Construct (chain): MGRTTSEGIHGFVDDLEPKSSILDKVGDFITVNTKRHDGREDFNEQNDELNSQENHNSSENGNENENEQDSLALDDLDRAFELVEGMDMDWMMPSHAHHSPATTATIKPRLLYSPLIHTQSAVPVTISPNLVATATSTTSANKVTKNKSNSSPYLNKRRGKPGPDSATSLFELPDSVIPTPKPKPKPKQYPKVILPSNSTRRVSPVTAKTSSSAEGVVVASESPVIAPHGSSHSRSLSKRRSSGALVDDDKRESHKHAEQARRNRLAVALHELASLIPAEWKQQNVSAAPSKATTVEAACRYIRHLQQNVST
With `CGGGGTTAAGTTTGGCCGGTGGGTGGCTTGCAGCAGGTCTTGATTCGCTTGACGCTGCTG` the fluorescence intensity was 4550 a.u.
`CGTCCTAGTGATTGCCGGGTGGGTGCCATGAGGAAGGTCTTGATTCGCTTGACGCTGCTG` has a fluorescence intensity of 6950 a.u.
With `AACGGTTGATTCATTAATGTGATGCTTGTTCACCCTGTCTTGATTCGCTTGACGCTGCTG` the fluorescence intensity was 3580 a.u.
`GAGAGGATTGCGACCTTGTTATCATGGCATTGATGTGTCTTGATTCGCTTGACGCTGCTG` has a fluorescence intensity of 4160 a.u.
For `CTTCTGTAAATTTGCAGAGTGGGTGGACGCGCCCCGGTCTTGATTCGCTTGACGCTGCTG`, the fluorescence intensity was 3640 a.u.
The fluorescence intensity of `GTTGGGTTCTACCGTCACGCAATTGCTTCAAGGACCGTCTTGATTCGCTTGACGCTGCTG` is reported as 3930 a.u.
With `CGTCCTAGTGATTGGATAGTGGGTGCCATGAGGAAGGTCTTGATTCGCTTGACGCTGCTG` the fluorescence intensity was 6970 a.u.
`CGGGGTTAAGTTTGCAATGTGGGTGGCTTGCAGCAGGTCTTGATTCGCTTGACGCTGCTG` has a fluorescence intensity of 6030 a.u.

Other studies, line by line
`O=C(NS(=O)(=O)c1ccc(NCC2CCOCC2)c([N+](=O)[O-])c1)c1ccc(N2CCN(Cc3ccc(C(F)(F)F)cc3-c3ccc(Cl)cc3)CC2)cc1Oc1cnc2[nH]ccc2c1` has a remaining binding of 100% (Cyclin-dependent kinase-like 2 (CDKL2, Homo sapiens, UniProt Q92772); cell-free assay, competition with immobilised ligand; 1 µM).

A few entries again (set 1):
With `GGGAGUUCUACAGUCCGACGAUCCAGGGACGUUUUGAUGUAAAAAUUGAAGUUAAGAGCUGAUCACAAGCACAAAUCUUUCCCACUAGCCAUUUAAUAAGUUAAAAAAAGAUACAAAAACAAAAACCUACUAGUCUUGAACAACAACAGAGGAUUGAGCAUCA` the bound/input enrichment was 87.6 ratio.
The bound/input enrichment of `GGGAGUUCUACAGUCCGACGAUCAUUUGGGGGGAGAUGACUUUGAAUUUUGUUUGAAAUGCUUCAGUUGUCAUUUUGUCAUUGCAUUUCAAAUAGCUCAUGACCCUUUUCUUGUGGUCACUUUGGCACACCAUAGUAGCCCACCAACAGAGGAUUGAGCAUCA` is reported as 0.337 ratio.
`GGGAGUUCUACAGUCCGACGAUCUGCACCUUUAGAACUAUUAAUAGCAACCUGCAUUUUUUUUUAAUUUAUACUUCAGAAUCCUUUAAGAACCUGGUGUUCCUGAGUGGUCCUGAAUCAUAUAAGUUGGUAAUGGAAGCUGUACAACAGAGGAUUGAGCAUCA` gave a bound/input enrichment of 3.16 ratio.
